Assay results pooled from the literature.
A part holds a random share of what one study measured.
UniProt P42336, sequence (whole entry, unmodified, looked up): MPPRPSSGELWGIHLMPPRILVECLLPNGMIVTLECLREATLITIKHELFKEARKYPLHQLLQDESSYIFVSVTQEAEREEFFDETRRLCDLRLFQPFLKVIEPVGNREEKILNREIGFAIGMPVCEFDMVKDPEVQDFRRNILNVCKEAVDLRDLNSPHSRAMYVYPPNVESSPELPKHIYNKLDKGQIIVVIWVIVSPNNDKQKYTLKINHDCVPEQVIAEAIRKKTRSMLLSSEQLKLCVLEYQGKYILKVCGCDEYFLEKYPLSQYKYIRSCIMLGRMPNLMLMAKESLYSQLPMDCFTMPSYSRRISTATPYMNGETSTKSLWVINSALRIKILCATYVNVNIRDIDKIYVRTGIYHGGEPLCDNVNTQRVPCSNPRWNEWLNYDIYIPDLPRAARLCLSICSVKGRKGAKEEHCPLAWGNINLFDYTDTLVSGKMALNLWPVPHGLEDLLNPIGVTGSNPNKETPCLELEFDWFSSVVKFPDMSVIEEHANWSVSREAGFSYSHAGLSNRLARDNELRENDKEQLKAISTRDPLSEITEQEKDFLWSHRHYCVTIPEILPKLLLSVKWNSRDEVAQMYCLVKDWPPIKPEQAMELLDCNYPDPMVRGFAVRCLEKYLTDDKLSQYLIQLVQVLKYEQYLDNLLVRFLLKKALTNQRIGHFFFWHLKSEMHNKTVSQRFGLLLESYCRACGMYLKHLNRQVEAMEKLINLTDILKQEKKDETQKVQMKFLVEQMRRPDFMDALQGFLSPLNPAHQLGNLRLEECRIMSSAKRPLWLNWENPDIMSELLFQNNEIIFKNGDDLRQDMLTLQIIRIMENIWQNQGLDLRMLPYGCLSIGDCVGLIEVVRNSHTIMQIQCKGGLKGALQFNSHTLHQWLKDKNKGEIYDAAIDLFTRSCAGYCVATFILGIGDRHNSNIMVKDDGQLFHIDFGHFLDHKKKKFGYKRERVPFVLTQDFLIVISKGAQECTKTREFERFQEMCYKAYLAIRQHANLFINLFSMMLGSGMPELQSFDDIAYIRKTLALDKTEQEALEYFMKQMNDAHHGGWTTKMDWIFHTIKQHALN
UniProt Q9UBF8, sequence (whole entry, looked up): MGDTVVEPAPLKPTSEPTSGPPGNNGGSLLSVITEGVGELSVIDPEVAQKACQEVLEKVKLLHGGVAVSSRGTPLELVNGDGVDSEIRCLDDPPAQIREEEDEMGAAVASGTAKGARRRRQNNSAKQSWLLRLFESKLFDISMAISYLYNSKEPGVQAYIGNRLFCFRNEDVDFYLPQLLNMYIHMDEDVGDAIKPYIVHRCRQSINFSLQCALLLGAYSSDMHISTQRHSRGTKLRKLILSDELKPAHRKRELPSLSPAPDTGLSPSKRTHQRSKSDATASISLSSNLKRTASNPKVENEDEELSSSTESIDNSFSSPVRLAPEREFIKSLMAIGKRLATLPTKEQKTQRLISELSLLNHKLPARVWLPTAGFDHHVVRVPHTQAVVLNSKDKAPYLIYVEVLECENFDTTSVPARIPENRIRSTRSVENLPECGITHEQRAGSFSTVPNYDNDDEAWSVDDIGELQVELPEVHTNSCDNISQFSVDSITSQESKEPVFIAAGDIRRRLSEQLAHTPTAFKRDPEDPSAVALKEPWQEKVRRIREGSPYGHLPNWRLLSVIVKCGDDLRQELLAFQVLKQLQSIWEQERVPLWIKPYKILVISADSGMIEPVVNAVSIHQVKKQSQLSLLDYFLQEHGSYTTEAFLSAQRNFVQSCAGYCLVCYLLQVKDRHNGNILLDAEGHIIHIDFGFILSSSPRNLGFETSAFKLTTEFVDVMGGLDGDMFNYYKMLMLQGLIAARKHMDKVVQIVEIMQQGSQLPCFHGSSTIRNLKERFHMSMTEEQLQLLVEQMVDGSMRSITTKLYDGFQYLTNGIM
UniProt Q5VT25, sequence (whole entry, looked up): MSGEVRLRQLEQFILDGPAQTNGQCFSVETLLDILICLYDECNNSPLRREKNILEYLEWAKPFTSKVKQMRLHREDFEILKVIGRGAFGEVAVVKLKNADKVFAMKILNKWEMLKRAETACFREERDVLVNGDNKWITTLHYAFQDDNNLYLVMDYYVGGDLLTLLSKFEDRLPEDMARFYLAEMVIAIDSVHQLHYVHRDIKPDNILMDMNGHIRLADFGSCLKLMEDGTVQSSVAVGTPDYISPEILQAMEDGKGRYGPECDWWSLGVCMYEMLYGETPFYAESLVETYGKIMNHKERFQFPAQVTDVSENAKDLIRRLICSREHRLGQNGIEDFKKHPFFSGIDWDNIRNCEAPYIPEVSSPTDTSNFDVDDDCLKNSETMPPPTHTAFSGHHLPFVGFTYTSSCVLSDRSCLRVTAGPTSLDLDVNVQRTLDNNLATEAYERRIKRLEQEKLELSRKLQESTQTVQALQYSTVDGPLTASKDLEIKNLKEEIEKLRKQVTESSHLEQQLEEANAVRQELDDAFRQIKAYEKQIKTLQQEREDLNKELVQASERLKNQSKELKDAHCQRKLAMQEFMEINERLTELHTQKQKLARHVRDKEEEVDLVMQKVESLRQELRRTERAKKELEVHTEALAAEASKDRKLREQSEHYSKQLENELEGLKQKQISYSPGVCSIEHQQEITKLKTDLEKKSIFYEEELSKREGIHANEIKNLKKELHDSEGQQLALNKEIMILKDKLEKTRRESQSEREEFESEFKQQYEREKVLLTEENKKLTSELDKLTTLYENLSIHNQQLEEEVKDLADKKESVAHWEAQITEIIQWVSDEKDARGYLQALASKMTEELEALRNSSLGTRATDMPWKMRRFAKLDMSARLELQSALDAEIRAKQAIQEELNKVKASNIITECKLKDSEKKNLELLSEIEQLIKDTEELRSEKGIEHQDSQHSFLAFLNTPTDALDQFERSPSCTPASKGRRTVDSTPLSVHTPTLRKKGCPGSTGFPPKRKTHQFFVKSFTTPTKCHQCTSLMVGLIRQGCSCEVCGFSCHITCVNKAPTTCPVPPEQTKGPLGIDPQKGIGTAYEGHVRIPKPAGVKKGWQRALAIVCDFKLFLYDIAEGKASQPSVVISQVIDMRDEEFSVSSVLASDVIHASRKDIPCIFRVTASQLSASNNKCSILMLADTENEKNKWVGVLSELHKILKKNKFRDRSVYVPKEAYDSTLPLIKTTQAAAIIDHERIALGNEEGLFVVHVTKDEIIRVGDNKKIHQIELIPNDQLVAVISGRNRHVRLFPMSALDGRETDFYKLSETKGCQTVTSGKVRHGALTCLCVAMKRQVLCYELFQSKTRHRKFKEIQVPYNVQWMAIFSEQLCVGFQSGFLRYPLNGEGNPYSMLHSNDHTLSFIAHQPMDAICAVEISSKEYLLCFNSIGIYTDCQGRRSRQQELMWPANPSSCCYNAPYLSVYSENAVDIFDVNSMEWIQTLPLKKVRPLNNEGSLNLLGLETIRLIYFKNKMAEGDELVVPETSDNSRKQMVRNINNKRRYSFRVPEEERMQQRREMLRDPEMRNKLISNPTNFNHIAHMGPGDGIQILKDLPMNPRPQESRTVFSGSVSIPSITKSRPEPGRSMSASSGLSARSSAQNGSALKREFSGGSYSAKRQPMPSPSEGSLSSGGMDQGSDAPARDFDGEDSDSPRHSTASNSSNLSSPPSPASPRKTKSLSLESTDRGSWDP
UniProt O94768, sequence (whole entry, looked up): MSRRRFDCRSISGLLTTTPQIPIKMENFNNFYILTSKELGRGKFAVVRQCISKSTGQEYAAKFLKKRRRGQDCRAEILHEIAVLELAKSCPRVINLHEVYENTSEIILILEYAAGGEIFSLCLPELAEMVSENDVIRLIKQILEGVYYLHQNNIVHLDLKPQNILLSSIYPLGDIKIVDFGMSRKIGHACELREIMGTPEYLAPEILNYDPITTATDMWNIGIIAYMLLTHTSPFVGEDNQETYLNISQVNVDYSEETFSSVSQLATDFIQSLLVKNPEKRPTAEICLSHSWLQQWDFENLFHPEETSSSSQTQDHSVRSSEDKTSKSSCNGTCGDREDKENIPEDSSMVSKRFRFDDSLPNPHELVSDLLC

Series 1
Target: Transcription factor SOX-2, HMG box (SOX2, Homo sapiens, UniProt P48431, residues 37-118)
UniProt P48431, sequence (37-118, looked up): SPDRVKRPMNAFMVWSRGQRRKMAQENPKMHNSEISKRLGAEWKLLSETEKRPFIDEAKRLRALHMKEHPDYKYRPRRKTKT
Technique: protein-binding microarray
Form: hairpin DNA
Matrix: in vitro
Tested at: not given
Setting: whole hairpin DNA, median over replicate spots
Reference: not given
Reading: higher = stronger binding
Endpoint: median fluorescence
Shared flanks, not repeated: GCAGGCCC … GGGCCTGCACACTCTTTCCCTACACGAC
ACGATGGGCCTCCTGGCCCATCGT (5mC at 30): 2370 a.u.
ACTATGGGCCTCCTGGCCCATAGT (5mC at 10): 2420 a.u.
ACAATCAGCCTCCTGGCTGATTGT (5mC at 14): 2880 a.u.
ACCTTGGGCCTCCTGGCCCAAGGT: 2370 a.u.
CGAATGGGCCTCCTGGCCCATTCG (5mC at 31): 2390 a.u.
ACAGTGGGCCTCCTGGCCCACTGT: 2410 a.u.
ACCCTGGGCCTCCTGGCCCAGGGT (5mC at 11): 2450 a.u.
ACACGGGGCCTCCTGGCCCCGTGT: 2460 a.u.

Series 2
Target: Macrophage colony-stimulating factor 1 receptor (CSF1R, Homo sapiens, UniProt P07333)
UniProt P07333, sequence (whole entry, looked up): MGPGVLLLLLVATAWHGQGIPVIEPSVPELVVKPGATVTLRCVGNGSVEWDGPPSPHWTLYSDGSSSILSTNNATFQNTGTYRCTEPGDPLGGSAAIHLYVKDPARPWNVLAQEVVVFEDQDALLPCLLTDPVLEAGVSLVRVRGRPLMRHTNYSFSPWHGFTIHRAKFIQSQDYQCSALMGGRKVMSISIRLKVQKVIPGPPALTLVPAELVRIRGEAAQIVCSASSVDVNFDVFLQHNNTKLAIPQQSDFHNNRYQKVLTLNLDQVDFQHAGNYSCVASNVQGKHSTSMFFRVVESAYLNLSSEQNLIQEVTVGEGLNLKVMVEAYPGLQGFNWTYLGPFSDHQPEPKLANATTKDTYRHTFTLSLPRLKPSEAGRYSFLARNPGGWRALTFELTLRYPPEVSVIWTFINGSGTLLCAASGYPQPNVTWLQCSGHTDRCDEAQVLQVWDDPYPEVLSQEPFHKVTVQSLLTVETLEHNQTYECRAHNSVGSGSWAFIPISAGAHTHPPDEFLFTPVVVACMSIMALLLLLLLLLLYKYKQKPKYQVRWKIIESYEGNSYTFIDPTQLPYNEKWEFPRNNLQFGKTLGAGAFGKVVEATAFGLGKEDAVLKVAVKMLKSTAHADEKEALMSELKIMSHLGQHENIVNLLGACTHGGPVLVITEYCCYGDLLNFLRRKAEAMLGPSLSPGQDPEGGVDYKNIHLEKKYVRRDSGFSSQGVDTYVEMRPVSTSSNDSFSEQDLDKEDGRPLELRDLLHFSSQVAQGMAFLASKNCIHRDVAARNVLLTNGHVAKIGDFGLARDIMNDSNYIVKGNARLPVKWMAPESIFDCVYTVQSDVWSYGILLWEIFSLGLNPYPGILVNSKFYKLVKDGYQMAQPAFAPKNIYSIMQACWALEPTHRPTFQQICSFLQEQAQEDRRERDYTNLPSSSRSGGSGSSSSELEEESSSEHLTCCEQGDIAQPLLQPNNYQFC
Observed: enzyme activity
Mode: inhibitor
Tested at: 0.5 µM
Reference: control
Endpoint: remaining activity
O=C(CCCc1ccc(-c2ccccc2F)cc1)Nc1ccc(O)cc1: 104%
O=C1NC(=O)C(c2cn(CCCn3ccnc3)c3ccccc23)=C1Nc1ccccc1: 97.5%
COc1ccc(C(=O)Nc2sc3c(c2C(N)=O)CCCC3)cc1OC: 90.2%
C#Cc1cccc(Nc2ncnc3cc(OCCOC)c(OCCOC)cc23)c1: 106%
Cc1ccc(NC(=O)c2ccc(CN3CCN(C)CC3)cc2)cc1Nc1nc(-c2cccnc2)cs1: 8.38%
O=C(Nc1cccc(Nc2cc(Nc3cccc(C(F)(F)F)c3)ncn2)c1)C1CC1: 99.9%
COc1ccc(OC)c2c(=S)c3ccccc3[nH]c12: 93.4%
Nc1ncnc2n[nH]c(Nc3ccc(F)cc3)c12: 101%
O=c1c2ccccc2[nH]c(=S)n1CCN1CCC(=C(c2ccc(F)cc2)c2ccc(F)cc2)CC1: 102%
CCOC(=O)c1c(C)[nH]c(/C=C2\C(=O)Nc3ccccc32)c1C: 52.5%
NCCNc1ncc(C(N)=O)c(Nc2cccc(C(F)(F)F)c2)n1: 78.6%
Cc1nc(-c2ccccc2)c(-c2ccncc2)o1: 104%
OCC(O)CCON=C1C(c2c(O)[nH]c3ccccc23)=Nc2ccccc21 (stereo not shown): 21.1%

Series 3
Target: Interferon regulatory factor 5, full length, phosphomimetic (IRF5, Homo sapiens, UniProt Q13568-2, residues 1-514, S451D/S453D/S456D/S462D)
Technique: protein-binding microarray
Form: double-stranded DNA, one strand shown
Matrix: in vitro
Tested at: 940 nM top
Setting: 60-bp whole probe
Added: salmon DNA 0.4 mg/ml
Reference: random background probes
Reading: higher = stronger binding
Endpoint: fitted relative affinity
Shared flanks, not repeated: GCCTAGCAC … GTCTTGATTCGCTTGACGCTGCTG
GACGGTTTCGGATTTCGGGACGTGCTA: 6.72 z-score
TTAGGTCTCGGTTTCCGTTAGTGCTAG: 5.48 z-score
TTAGAACTGAGACTGGATTCGTGCTAG: 0.103 z-score
TTAGATATCAGACTGGAGTAGTGCTAG: -0.359 z-score
GACGATATCAGACTGAAGACGTGCTAG: -0.783 z-score
TTAGGACTGGCCACTGGGTTAGTGCTA: -0.421 z-score
TCAGATTTACAAACTGTGACTGTGCTA: 0.00132 z-score
TCAAATATATATTCATAACTGTGCTAG: 0.0468 z-score

Series 4
SMILES: CNC(=O)Nc1ccc2c(c1)CC[C@@]21OC(=O)N(CC(=O)N(Cc2ccc(F)cc2)[C@@H](C)C(F)(F)F)C1=O
Observed: cell-free assay
Technique: competition with immobilised ligand
Tested at: 1 µM
Endpoint: remaining binding
Serine/threonine-protein kinase Sgk1 (SGK1, Homo sapiens, UniProt O00141): 63%
Tyrosine-protein kinase ABL1, non-phosphorylated (ABL1, Homo sapiens, UniProt P00519, F317I): 71%
Phosphatidylinositol 4-kinase beta (PI4KB, Homo sapiens, UniProt Q9UBF8): 74%
Mitotic checkpoint serine/threonine-protein kinase BUB1 (BUB1, Homo sapiens, UniProt O43683): 66%
Serine/threonine-protein kinase B-raf (BRAF, Homo sapiens, UniProt P15056, V600E): 100%
Cyclin-dependent kinase 11B (CDK11B, Homo sapiens, UniProt P21127): 84%
Serine/threonine-protein kinase 17B (STK17B, Homo sapiens, UniProt O94768): 100%
Casein kinase I isoform gamma-1 (CSNK1G1, Homo sapiens, UniProt Q9HCP0): 94%
Serine/threonine-protein kinase MRCK alpha (CDC42BPA, Homo sapiens, UniProt Q5VT25): 100%
Phosphatidylinositol 4,5-bisphosphate 3-kinase catalytic subunit alpha isoform (PIK3CA, Homo sapiens, UniProt P42336, H1047L): 95%
LIM domain kinase 1 (LIMK1, Homo sapiens, UniProt P53667): 91%
Protein-tyrosine kinase 2-beta (PTK2B, Homo sapiens, UniProt Q14289): 73%
cAMP-dependent protein kinase catalytic subunit alpha (PRKACA, Homo sapiens, UniProt P17612): 100%
Cyclin-dependent kinase 7 (CDK7, Homo sapiens, UniProt P50613): 78%
